# Assay results pooled from the literature.
# Each numbered part is a random draw from the data of one study; scales do not carry over between parts.

# Study 1
# Target: Interferon regulatory factor 7, full length, phosphomimetic (IRF7, Homo sapiens, UniProt Q92985, residues 1-503, S471D/S472D/S475D/S476D/S477D/S483D/S484D/S487D)
# UniProt Q92985, sequence (whole entry, unmodified, looked up): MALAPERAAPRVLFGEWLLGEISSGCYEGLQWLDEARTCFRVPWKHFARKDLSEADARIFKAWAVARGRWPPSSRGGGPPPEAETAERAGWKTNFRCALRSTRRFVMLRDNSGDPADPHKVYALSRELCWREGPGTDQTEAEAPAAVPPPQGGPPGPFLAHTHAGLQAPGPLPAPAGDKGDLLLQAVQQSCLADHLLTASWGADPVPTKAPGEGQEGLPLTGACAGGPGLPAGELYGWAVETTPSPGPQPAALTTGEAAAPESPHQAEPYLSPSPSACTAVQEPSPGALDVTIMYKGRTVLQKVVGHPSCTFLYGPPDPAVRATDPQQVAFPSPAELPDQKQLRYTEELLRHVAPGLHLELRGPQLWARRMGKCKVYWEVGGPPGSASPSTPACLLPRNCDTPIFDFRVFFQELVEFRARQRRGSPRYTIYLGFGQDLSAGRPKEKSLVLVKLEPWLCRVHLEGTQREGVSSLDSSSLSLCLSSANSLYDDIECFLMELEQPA
# Method: protein-binding microarray
# Molecule type: double-stranded DNA, one strand shown
# Medium: in vitro
# Concentration: 2200 nM top
# Setting: 60-bp whole probe
# With: salmon DNA 0.4 mg/ml
# Reference: random background probes
# Direction: higher = stronger binding
# Constant ends, left off below: GCCTAGCAC … GTCTTGATTCGCTTGACGCTGCTG
Strand,fitted relative affinity
TTAGAACTGAGTCTGGATTAGTGCTAG,-0.421 z-score
GAAGGTTTCCTTTCCCTGACGTGCTAG,3.7 z-score
TTAGTTTTCGGGACTGGGTTAGTGCTA,3.6 z-score
TTAGGACTGGGTATCGGTGAGTGCTAG,-0.762 z-score
GACGTTCTCCTTTTCCTGACGTGCTAG,2.39 z-score
GACGGTATCCTTATACTGACGTGCTAG,0.604 z-score
GACGGCCTCCTTATCCTGACGTGCTAG,0.647 z-score
TTAGAACTGAGTGTCGATTAGTGCTAG,-0.477 z-score
TTAGGACAGGGTCTCGGTTAGTGCTAG,-0.406 z-score
TTAGGTATCGGACTGGGTTTGTGCTAG,0.187 z-score
GATGGTTTCCTTTTCCTGACGTGCTAG,5.3 z-score
TGAGGTATCGGTTTCGGTTAGTGCTAG,6.96 z-score
TCAAGTCTTCTCCTCTAACTGTGCTAG,0.672 z-score
TTAGGTTTCGGTCTCGGTTAGTGCTAG,6.63 z-score
TTCGGTCTCCTTCTCCTTTAGTGCTAG,2.15 z-score
TTTGCATTGCTTCTATAGGCGTGCTAG,0.817 z-score
GACGGACTGCTACTGCTGATGTGCTAG,-0.257 z-score
GACGATTCCAGTTTCGCGACGTGCTAG,2.7 z-score
CTAGGTATCCTTATCCTTTAGTGCTAG,0.826 z-score
AGGACTCTGGAGGTTGAGAAAGTGCTA,-1.21 z-score
GACGGTTTCGACACTGGGGTCGTGCTA,2.52 z-score
TTAGGACAGCTTTTCCTTTAGTGCTAG,0.707 z-score
TTAGATATAAGTTTCGATTAGTGCTAG,4.76 z-score
GACGATATCGGGTTTCGCGACGTGCTA,1.01 z-score

# Study 2
# Target: Centromere-binding protein 1, full length, His-tagged (CBF1, Saccharomyces cerevisiae, UniProt P17106, residues 1-351)
# UniProt P17106, sequence (whole entry, looked up): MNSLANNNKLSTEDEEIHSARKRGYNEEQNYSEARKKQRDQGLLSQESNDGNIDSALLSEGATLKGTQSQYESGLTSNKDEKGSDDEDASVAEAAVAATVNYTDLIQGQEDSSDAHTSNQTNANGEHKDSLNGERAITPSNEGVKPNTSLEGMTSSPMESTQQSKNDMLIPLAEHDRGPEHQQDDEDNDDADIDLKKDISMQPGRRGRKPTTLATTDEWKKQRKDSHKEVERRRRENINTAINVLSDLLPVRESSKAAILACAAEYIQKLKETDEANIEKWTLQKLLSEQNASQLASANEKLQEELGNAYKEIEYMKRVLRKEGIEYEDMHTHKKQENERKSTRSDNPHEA
# Method: competition protein-binding microarray
# Molecule type: double-stranded DNA, one strand shown
# Medium: in vitro
# Concentration: 2 µM
# Setting: whole 60-bp probe, lowest competitor level
# With: Pho4 competitor, 0.05 µM
# Direction: higher = stronger binding
# Constant ends, left off below: … GTCTTGATTCGCTTGACGCTGCTG
Strand,fluorescence intensity [a.u.]
ACCGAATCTTCGTTCCACGTGGTTACCTGTCATGGT,1100
AAAGCGGTAATTTTTCACGTGCACTCACATATCTAT,1400
TTCTCATAGAGAATCCACGTGTTGGTCTTTTGGATT,869
ACCCTCAAGCTTTGGCGCGTGCGGATCTATATAAGG,91.3
CAGGGGGAGCAAGTGCATGATCAGAAGGACCAATCT,92.7
ATCGATTCGAAATCGCACGTAGCTGGTCATACGGCC,80.5
TGGGAAGAAAAAAAGCACGTGAGCCTGGAAAATCCG,2170
AAAGCCTACGCGAGTCACGTTCCAGGAAGATGAAGG,692
CGTCCTAGTGATTGGGTTGTGGGTGCCATGAGGAAG,96.2
TTTAGTGTCTCTGCCTATGTGATGGGTCTGTTTCCT,69
AAATTACTAAGTTTTCACGTGGTATACCCCGTATGA,865
GGTACAATCCGTTTGAACGTGACGGGGTTTGTTACA,256
CCGCTGCTCGCCGGCCACGTGCGCAGCCTGCAGGAG,784
CTTCTGTAAATTTTTCACGTGAGTTGACGCGCCCCG,973
CCAAATTATGATTTGCACGTATATGATCGTCTTTAT,103
GTTTCAGCGAAGTCGCACGTGAAGGATAGCAGTGGC,700
CGGGGTTAAGTTTGACAGGTGGGTGGCTTGCAGCAG,62.9
CTAACGAAGGTTTGTCTGGTGGGTGACAAGCCAAGT,68.3
ACTGTTAAGAACCGTCACGTCTTCCTTTGGCTTTGA,93.8
CAGTATTTATCAGTTCTCGAGCAAGCAGAGAAAAGT,71.4
TTGACCCAACTCGGCCACGTGGGTAGTTTTGCCATC,953
CTAACGAAGGTTTGTTGCGTGGGTGACAAGCCAAGT,63.6
CTAACGAAGGTTTTTCACGTGGCCTACAAGCCAAGT,791
TTATCTAGCTCTGCCCACATGTGTGTTAACGAAGCA,109

# Study 3
# Target: Histone acetyltransferase KAT6A, both winged helices, GST fusion (KAT6A, Homo sapiens, UniProt Q92794, residues 1-181)
# Method: protein binding microarray
# Molecule type: double-stranded DNA, one strand shown
# Medium: in vitro
# Concentration: not given
# Setting: 8-mer, flanks averaged, mean of 2 arrays, mostly near background
# Reference: not given
# Direction: higher = stronger binding
# Construct (chain): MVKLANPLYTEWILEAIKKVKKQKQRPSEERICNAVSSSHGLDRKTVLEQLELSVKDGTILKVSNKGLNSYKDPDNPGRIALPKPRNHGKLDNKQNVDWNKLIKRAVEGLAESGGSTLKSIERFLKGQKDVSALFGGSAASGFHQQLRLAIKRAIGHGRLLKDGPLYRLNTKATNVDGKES
Strand,E-score
GCAACAGA,0.0256
ATGGCAGA,-0.0218
CACGGAAC,0.313
GACTGTCA,0.125
ACTACGCT,0.0699
CAGCACTG,-0.15
ACGGGGTG,0.153
GAAGCTGC,0.00542
AGCTCAAT,-0.0904
CTATTGTC,-0.187
ATTCCTAA,-0.147
GCAAGTCA,-0.0395
AGTGCTAG,-0.0956
CAGGACGA,-0.0703
CAACCTTC,-0.163
TCGTGCAA,-0.0236
CGTACATC,0.0827
ATAGGTGA,-0.0942

# Study 4
# Target: Sal-like protein 4, full length isoform B (SALL4, Homo sapiens, UniProt Q9UJQ4-2, residues 1-616)
# Method: universal PBM
# Molecule type: double-stranded DNA, one strand shown
# Medium: in vitro
# Concentration: not given
# Setting: 8-mer, flanks averaged, mean of replicates
# Direction: higher = stronger binding
# Construct (chain): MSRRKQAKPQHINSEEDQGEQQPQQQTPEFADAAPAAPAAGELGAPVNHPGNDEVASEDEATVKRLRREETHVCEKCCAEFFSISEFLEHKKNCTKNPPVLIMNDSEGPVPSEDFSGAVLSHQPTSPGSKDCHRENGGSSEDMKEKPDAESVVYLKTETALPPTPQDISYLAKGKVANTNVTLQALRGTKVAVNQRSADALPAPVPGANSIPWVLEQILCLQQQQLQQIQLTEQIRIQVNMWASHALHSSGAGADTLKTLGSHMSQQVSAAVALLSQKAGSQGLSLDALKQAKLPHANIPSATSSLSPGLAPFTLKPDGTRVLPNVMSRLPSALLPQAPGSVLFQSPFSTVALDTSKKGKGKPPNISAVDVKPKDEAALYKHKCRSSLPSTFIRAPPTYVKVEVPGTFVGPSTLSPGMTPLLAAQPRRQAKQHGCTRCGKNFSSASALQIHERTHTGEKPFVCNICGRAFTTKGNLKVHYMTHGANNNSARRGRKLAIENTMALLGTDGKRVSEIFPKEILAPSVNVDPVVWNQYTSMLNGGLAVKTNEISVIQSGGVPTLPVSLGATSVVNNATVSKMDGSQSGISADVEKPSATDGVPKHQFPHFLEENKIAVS
Strand,E-score
GGAATTCC,-0.145
GAGTCTAA,0.00489
ACATCGGC,-0.138
CTGGGGGC,-0.364
GCTCCTTA,-0.115
CTATTTCA,0.181
CATAAGGA,0.0588
CCGGCGAC,-0.333
AAAAATAC,0.231
GCAGTATA,0.14
ACCCTAGG,-0.107
ACACTGAG,-0.166
CGTGAGCC,-0.222
AACGGTGA,-0.133
AGTGTGAA,0.185
GACGTCCC,-0.272
AGACGTAA,0.0713
AAACGGTG,0.016
AGCAGTAT,0.059

# Study 5
# Target: RNA binding protein fox-1 homolog 2, RRM domain, GST-SBP tag (RBFOX2, Homo sapiens, UniProt O43251-10, residues 100-194)
# Method: RNA Bind-n-Seq
# Molecule type: RNA
# Medium: in vitro
# Concentration: 365 nM
# Setting: natural RNA segment, single round, ends assumed
# Reference: no-protein control
# Direction: higher = stronger binding
# Constant ends, left off below: GGGAGUUCUACAGUCCGACGAUC … UGGAAUUCUCGGGUGCCAA
# Construct (chain): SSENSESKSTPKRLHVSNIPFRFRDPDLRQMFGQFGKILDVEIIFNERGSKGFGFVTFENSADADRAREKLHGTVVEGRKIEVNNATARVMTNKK
Strand,RBNS enrichment (R)
UUCAUGGUGGCAAAAUAUUAGCUCUGUUUUGGGACAUUUUAAAAUAGAACUAUCCUUGUUCGAUAGCAUAGGAAAAUGUUCUGGUGAUUGUCAGGGUCUCCUAAUAUUUA,0.56
GGCACCCUGCCUGUGAGGGCCACUUUCCUCUUCUAGUAGCUGUUGUCUGGUGGGGACGCAGUGGCCCUGGACACGGCUCCCCUCUGCAGGUCUGCAGGUCGGUUUGCUGC,0.773
CUCUUGAGCAAUGGAGUCACGUGUCUGCCCUGUGUAUUGCAGUUUGUCUUGACACAAGCUGUUUUUACACCAGUGUCAUCCCUUUCUUGUAGAAUAUACUAAUAAUCUGU,0.85
GAUGGAGUGAUGUUGUGGGCACAAGGCAUCUGUCAGCUGCCUCCUUUAACAGCCAUGCCUUCUGGAAUCUGGAAGAGGACACCACUCCUGCAGUCACUGGGCAGCCACAU,0.41
GGUAAAGGGGAAAAAAAGGUUUAAGAAAAGGAAAUUUGGAAAUUGCCUUGCAGAUAUUUCGGUACCGCUGAGUUUUCUUUCUUUUCCCAAGUGGGAAGAAGGCACACCUA,0.637
GAUGCAGAGGCAGGCCUGCUGACCAACUUGUUGCAAUCACAAAGGUGGGGGUCCUGGUGCAGGCAGUGAACAGGCUUCUAAUGUGGGGUUCAGUAGUGCCAGCAAGUGGG,0.587
CUAUUGGACAAAGUAUUUAUGUAAUUAUUUGAUAUCUCUUGUAAAUAGGUGGAAUAUGACUGCUCAGAAAGUUAAACUUUAAUUUAUUGAAUUGUACAUAGCUGGAUGUA,0.371
GGGACAUAGUAUGUGACAAUCUGCAUCGAUCAUGGACUACUAAAUGCCUUUACAUAGAAGGGCUCUGAUUUGCACAAUUUGUUGAAAAAUCACAAACCCAUAGAAAAGUA,0.318
UUUGAGCCUGGCUAAUGAGAAAAAGAACAAAGUAGGACCAUGACCCAGUGUUCUCCUGUAAAUCUCACUGUAAAAAUCUCAAUGCAAAAACACUGAGACAGGAGUGAGAC,0.219
AUGCUUUUAUCUUGCUAUAGAAUAAACACAUUUCAGUAAAAACUGUGGACUGUAUUUUGAUGCAACAACAAAGAAACUGUUCACUUUUCAAAUAAAAUGAUAUGUCAGAU,0.396
AUGGCUGUCUCAGCACAAUACUCAACAUAACUGCAGAACUGAUGUGGCUCAGGCACCCUGGUUUUAAUUCCUUGAGGAUCUGGCAAUUGGCUUACGCAAAAGGUCACCAU,0.623
UCAGCAUUCCCUUGAUAUCAGUCCCCUUCACUGCAGAGCCUUGCCUUUCCCCUCUGCCUGUUUCCUUUUCCUCUCCCAACCCUCUGGUUGGUGAUUCAACUUGGGCUCCA,7.98

# A few entries again (study 3):
Strand,E-score
CAGCACTG,-0.15
ACGGGGTG,0.153
GAAGCTGC,0.00542
AGCTCAAT,-0.0904
CTATTGTC,-0.187
ATTCCTAA,-0.147
GCAAGTCA,-0.0395
AGTGCTAG,-0.0956
CAGGACGA,-0.0703
CAACCTTC,-0.163
TCGTGCAA,-0.0236
CGTACATC,0.0827
ATAGGTGA,-0.0942
